# Assay results gathered from unrelated publications.
# A part holds a random share of what one study measured.

# Series 1 — technique: aptamer microarray, sandwich; molecule type: DNA with 2'F-ANA; medium: in vitro; tested at: 200 nM; added: Cy3 exosite-II aptamer, 400 nM; reading: higher = stronger binding; oligonucleotide: GGTTGGTGTGGTTGG
# Target: Prothrombin, mature alpha-thrombin (F2, Homo sapiens, UniProt P00734)
# Notes: whole 15-mer aptamer, many near background
Modification,mean fluorescence intensity
2'F-ANA at 4 5 6 9 11 12 15,91.6 a.u.
2'F-ANA at 2 3 7 11 12 13 14,448 a.u.
2'F-ANA at 3 4 7 8 10 14,260 a.u.
2'F-ANA at 1 2 3 4 5 8 9 11 12 13,66.8 a.u.
2'F-ANA at 3 6 7 8 11 12 13 14 15,581 a.u.
2'F-ANA at 1 3 5 6 7 14 15,44.9 a.u.
2'F-ANA at 1 6 7 8 9 10 12 14,60.6 a.u.

# Series 2 — technique: RNA Bind-n-Seq; molecule type: RNA; medium: in vitro; tested at: 365 nM; reference: no-protein control; reading: higher = stronger binding
# Target: RNA binding protein fox-1 homolog 2, RRM domain, GST-SBP tag (RBFOX2, Homo sapiens, UniProt O43251-10, residues 100-194)
# Notes: natural RNA segment, single round, ends assumed
# Shared flanks, not repeated: GGGAGUUCUACAGUCCGACGAUC … UGGAAUUCUCGGGUGCCAA
# Residues (chain): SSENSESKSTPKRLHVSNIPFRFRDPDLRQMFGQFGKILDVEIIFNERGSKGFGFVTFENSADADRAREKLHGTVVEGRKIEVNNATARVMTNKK
Oligonucleotide,RBNS enrichment (R)
CUGUGGGUGGGGAUGAGUUGCUUGACUCAUGUUUAGACGCAUGGUUCUGUCUGGUGAUUGAGGUGCCCAGGCGACGCUGGGCAAUGUCAAGAGAGGUUUUGGCUUGUCAC,0.45
AAGUGCAUUUUUCUAGGUAGACUCCUGCCCUCCUUGCUACCAGACCUGCAGCCACCUUGGUUUUGCCUUGGAGAACAUUUGGGGAGCAUUUCCUGAACCCAUGUCUUUUG,1.65
CAUGCCUUCUUCAGUGGCUGAGGGAUGACAAGCAGGACUUCCUGAGAGUCAGUCUGAAGAGAACACAGCCCUGGAGCCCCCCGGCCUCCGGGAAGAAGGAGAAGGAGAUG,0.396
AAUCUGCAGACCCUCCAGCAGUUGGCUGUUGAGUCCCUGCUGUGGAAGUUCUCUUGACUAUCACCUGCUUCCAGCUACCAGGCAAGAAAGAGGGCCUCUGUUCUCAACCA,0.309
AAGGGAGCACCCUGUUCCUAGACAGAUGGAGAGGCGUAUCCAUGUUUUCCUACAUAAUGUGGUUAAAACUUGAAUUUGUGCUUCAGCUCUUCUGUACUUCUUCCUUCCUA,0.211
UUAAAGGGGGUAUGUGAUAAUAGAGGGCUGGAAUUUAAACCUGUAUUUAAAAAAAAGAAUCACCAAAUCUAUUUGAAAACAAGUCGAUUUGUAUUAUGCUGGAAUUUUUU,3.95
CCCUCUCAGGGAUGAGACAUGGACAGGUCUCUGGAACGUUAUGGGUAAUGAGCCCCAGCAACUGUCCUCAGCCCCUCUUCCCCUCAUUUGUUCCUUCUGUCCUUCCAACA,0.277
GCUGCCUAUGUUUCUUUUUAAAGCUCGCAUUCCCAGAAUCAGCUUAGGCUUCUAUGAAUUCAGCCUGUUUCUAAAAGCUGAAAAUCUCAGUUUAAAAAUCAAAAUGUUAA,1.09
GCUCACCACCCAUCUGCACAAGCUCAGUGCUGACCAGGGACCUGGGCUUCACAUUGGGUCCUGGCCCGAGGAGCCUUGCUUCACUUACUUAGCCCCAGGCCUGGGCAGGG,0.48
UGCUGAGCCCUCGCAUCUGGGUGGCGGAAUUGCCUGCGGGGUUUUGCCCUUGGUUUACUGAGGGGGGUCUUGGUUGCUGCUGAAGCCCCCCACCCCUUCUAAAGUGCAAU,3.17
GCUGUCAUCCCCUCCCCCAACCUUGGCCACUUGAGUUUGUCCUCCAAGGGUAGGUGUCUCAUUUGUUCUGGCCCCUUGGAUUUAAAAAUAAAAUUAAUUUCCUGUUGAUA,0.877
AGCAUUCAUUUUGAGAAAAGCAACUUUAGUUUCAAGGAUAAUUUUAAGCUUCAAAAUUAAUCAUUUAAAGUGUUUCUUUAAGAGAGCCAUGUUAGAGGCUCACACUUUAG,0.878

# Series 3 — technique: protein-binding microarray; molecule type: double-stranded DNA, one strand shown; medium: in vitro; tested at: 250 nM; notes: 60-bp whole probe; added: salmon DNA 0.4 mg/ml; reference: random background probes; reading: higher = stronger binding; shared flanks, not repeated: GCCTAGCAC … GTCTTGATTCGCTTGACGCTGCTG
# Target: Interferon regulatory factor 5, full length, phosphomimetic (IRF5, Homo sapiens, UniProt Q13568-2, residues 1-514, K96S/S451D/S453D/S456D/S462D)
Oligonucleotide,log fluorescence
TTACGTATCGGTTTCGGTTAGTGCTAG,11.4 z-score
GAAGGTATCCTTATCCTGACGTGCTAG,0.158 z-score
CAGCCTTTGCCTCATCTTGCAGTGCTA,-0.0886 z-score
TTAGGTTTCGACACTGCGTTAGTGCTA,5.84 z-score
GACGGACTGGGTTTCGGGGCGTGCTAG,1.32 z-score
TCATTTATGGTATTTTTACTGTGCTAG,0.819 z-score
TTAGGTATCGAACTGGGTTAGTGCTAG,1.16 z-score
TGTTTTACAGGTTCTCTTTTAGTGCTA,0.652 z-score

# Single results of other studies
Substance,target,assay,test system,conditions,scale,endpoint,value
"PhoQ, residues 284 288 289 292 302 303 SIHLQL","PhoP, residues 12 14 15 18 19 NYFTV (Escherichia coli, UniProt P23836)","Sort-seq, refers to: YFP reporter",E. coli,"PhoQ-PhoP variant library, added: 10 µM Mg2+","reference: high Mg2+ state, higher = stronger signaling",fold induction,19

# A few entries again (series 2):
Oligonucleotide,RBNS enrichment (R)
GCUGUCAUCCCCUCCCCCAACCUUGGCCACUUGAGUUUGUCCUCCAAGGGUAGGUGUCUCAUUUGUUCUGGCCCCUUGGAUUUAAAAAUAAAAUUAAUUUCCUGUUGAUA,0.877
AAGGGAGCACCCUGUUCCUAGACAGAUGGAGAGGCGUAUCCAUGUUUUCCUACAUAAUGUGGUUAAAACUUGAAUUUGUGCUUCAGCUCUUCUGUACUUCUUCCUUCCUA,0.211
GCUCACCACCCAUCUGCACAAGCUCAGUGCUGACCAGGGACCUGGGCUUCACAUUGGGUCCUGGCCCGAGGAGCCUUGCUUCACUUACUUAGCCCCAGGCCUGGGCAGGG,0.48
